{"data": "Assay results gathered from unrelated publications", "note": "Numbered parts are unrelated; each lists some results of a single study."}
{"data": "Block 1", "target": "Histone acetyltransferase KAT6A, both winged helices, GST fusion (KAT6A, Homo sapiens, UniProt Q92794, residues 1-181)", "method": "protein binding microarray", "form": "double-stranded DNA, one strand shown", "medium": "in vitro", "concentration": "not given", "setting": "8-mer, flanks averaged, mean of 2 arrays, mostly near background", "relative to": "not given", "reading": "higher = stronger binding", "Construct (chain)": "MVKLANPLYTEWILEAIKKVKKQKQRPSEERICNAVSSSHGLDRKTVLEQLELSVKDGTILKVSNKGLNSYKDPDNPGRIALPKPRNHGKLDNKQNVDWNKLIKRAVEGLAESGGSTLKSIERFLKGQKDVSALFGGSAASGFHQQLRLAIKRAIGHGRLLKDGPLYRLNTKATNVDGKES"}
{"Oligonucleotide": "AAATTTAC", "E-score": -0.00591}
{"Oligonucleotide": "ATTCATCA", "E-score": -0.0723}
{"Oligonucleotide": "CTTCAGCC", "E-score": -0.209}
{"Oligonucleotide": "GACGTATC", "E-score": 0.0764}
{"Oligonucleotide": "AAAATTCT", "E-score": 0.0657}
{"Oligonucleotide": "ATCGAAAC", "E-score": 0.137}
{"Oligonucleotide": "CGCCCACA", "E-score": 0.115}
{"Oligonucleotide": "AGTACACT", "E-score": -0.213}
{"Oligonucleotide": "CTGTAATC", "E-score": -0.0883}
{"Oligonucleotide": "CAACAGCA", "E-score": -0.0646}
{"Oligonucleotide": "ACATCCGT", "E-score": 0.181}
{"Oligonucleotide": "TACAAGCA", "E-score": -0.0566}
{"Oligonucleotide": "AATCATGC", "E-score": 0.054}
{"Oligonucleotide": "GATGGCGC", "E-score": 0.205}
{"Oligonucleotide": "GTTATATA", "E-score": -0.0662}
{"Oligonucleotide": "ACCATCCT", "E-score": -0.0372}
{"Oligonucleotide": "GCTTTACC", "E-score": 0.0988}
{"Oligonucleotide": "ATAGTCAC", "E-score": -0.091}
{"Oligonucleotide": "CACCTATG", "E-score": 0.0396}
{"Oligonucleotide": "TTGTCAAA", "E-score": -0.181}
{"Oligonucleotide": "CGAAGATA", "E-score": -0.0741}
{"Oligonucleotide": "AATCAACC", "E-score": -0.0117}
{"Oligonucleotide": "CCACTCTA", "E-score": -0.274}
{"Oligonucleotide": "GAAGACAC", "E-score": 0.0481}
{"Oligonucleotide": "GCCTCATA", "E-score": -0.0998}
{"data": "Block 2", "target": "Prothrombin, mature alpha-thrombin (F2, Homo sapiens, UniProt P00734)", "method": "aptamer microarray, sandwich", "form": "DNA with 2'F-ANA", "medium": "in vitro", "concentration": "200 nM", "setting": "whole 15-mer aptamer, many near background", "with": "Cy3 exosite-II aptamer, 400 nM", "reading": "higher = stronger binding", "oligonucleotide": "GGTTGGTGTGGTTGG"}
{"Modification": "2'F-ANA at 2 4 5 10 12 14 15", "mean fluorescence intensity": "47.5 a.u."}
{"Modification": "2'F-ANA at 3 5 9 10 11 13 14", "mean fluorescence intensity": "51.2 a.u."}
{"Modification": "2'F-ANA at 1 3 4 6 7 9 14 15", "mean fluorescence intensity": "60.5 a.u."}
{"Modification": "2'F-ANA at 1 8 13 14", "mean fluorescence intensity": "106 a.u."}
{"Modification": "2'F-ANA at 1 4 5 10 11 13 15", "mean fluorescence intensity": "50.5 a.u."}
{"Modification": "2'F-ANA at 1 2 3 4 12", "mean fluorescence intensity": "338 a.u."}
{"Modification": "2'F-ANA at 1 3 7 8 9 11 13 14 15", "mean fluorescence intensity": "92.5 a.u."}
{"Modification": "2'F-ANA at 2 5 6 7 8 10 12 13 14", "mean fluorescence intensity": "48.4 a.u."}
{"Modification": "2'F-ANA at 1 2 3 4 5 6 7 8 12 13 14 15", "mean fluorescence intensity": "182 a.u."}
{"Modification": "2'F-ANA at 2 3 6 9 10 11 14 15", "mean fluorescence intensity": "219 a.u."}
{"Modification": "2'F-ANA at 2 4 7 8 12 13 15", "mean fluorescence intensity": "552 a.u."}
{"Modification": "2'F-ANA at 1 2 4 6 7 10 11 12 15", "mean fluorescence intensity": "54.4 a.u."}
{"Modification": "2'F-ANA at 1 4 5 8 9 10 12 14", "mean fluorescence intensity": "107 a.u."}
{"Modification": "2'F-ANA at 1 2 4 6 7 8 9 11 13 15", "mean fluorescence intensity": "122 a.u."}
{"Modification": "2'F-ANA at 2 5 6 7 8 11 12 13 14", "mean fluorescence intensity": "54.1 a.u."}
{"Modification": "2'F-ANA at 2 3 4 5 6 7 9 10 13 14", "mean fluorescence intensity": "124 a.u."}
{"data": "Block 3", "target": "Interferon regulatory factor 7, full length, phosphomimetic (IRF7, Homo sapiens, UniProt Q92985, residues 1-503, S471D/S472D/S475D/S476D/S477D/S483D/S484D/S487D)", "method": "protein-binding microarray", "form": "double-stranded DNA, one strand shown", "medium": "in vitro", "concentration": "2200 nM top", "setting": "60-bp whole probe", "with": "salmon DNA 0.4 mg/ml", "relative to": "random background probes", "reading": "higher = stronger binding", "shared flanks, not repeated": "GCCTAGCAC … GTCTTGATTCGCTTGACGCTGCTG", "Residues (chain)": "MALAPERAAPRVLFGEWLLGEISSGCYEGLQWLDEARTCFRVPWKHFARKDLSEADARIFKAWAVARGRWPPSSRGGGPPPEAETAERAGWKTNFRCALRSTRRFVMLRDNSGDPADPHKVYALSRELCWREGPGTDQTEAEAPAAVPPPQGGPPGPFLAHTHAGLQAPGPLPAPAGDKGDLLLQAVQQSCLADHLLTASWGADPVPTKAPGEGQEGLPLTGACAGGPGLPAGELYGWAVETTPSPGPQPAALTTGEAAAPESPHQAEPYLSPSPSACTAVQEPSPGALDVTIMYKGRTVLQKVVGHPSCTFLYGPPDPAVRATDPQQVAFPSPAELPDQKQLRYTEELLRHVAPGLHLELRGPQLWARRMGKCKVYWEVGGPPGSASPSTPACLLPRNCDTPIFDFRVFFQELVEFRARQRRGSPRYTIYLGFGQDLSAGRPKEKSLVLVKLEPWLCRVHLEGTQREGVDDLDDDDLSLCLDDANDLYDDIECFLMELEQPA"}
{"Oligonucleotide": "TCAAATTAGTGTTTCCCACTGTGCTAG", "fitted relative affinity [z-score]": 0.511}
{"Oligonucleotide": "TTAGAGCTGGGGACTGGATTAGTGCTA", "fitted relative affinity [z-score]": -1.05}
{"Oligonucleotide": "GACGGACTGCGTATCGGGACGTGCTAG", "fitted relative affinity [z-score]": -0.255}
{"Oligonucleotide": "CTCTGTTTATGTCTGGGTATGTGCTAG", "fitted relative affinity [z-score]": 1.93}
{"Oligonucleotide": "TTGGGTTTCGGGACTGGGTTAGTGCTA", "fitted relative affinity [z-score]": 2.74}
{"Oligonucleotide": "GACGGTTTCGGACAGGGGACGTGCTAG", "fitted relative affinity [z-score]": 1.95}
{"Oligonucleotide": "TTAGATTTCAGACTGGATTGGTGCTAG", "fitted relative affinity [z-score]": 0.0148}
{"Oligonucleotide": "GACGGACTGGACACAGGGGACGTGCTA", "fitted relative affinity [z-score]": -0.989}
{"Oligonucleotide": "GAAGGTATCGGGTTTCGGGACGTGCTA", "fitted relative affinity [z-score]": 1.89}
{"Oligonucleotide": "GAAGGTATCGGTTTCGGGACGTGCTAG", "fitted relative affinity [z-score]": 4.31}
{"Oligonucleotide": "TTGTGTCAACTTTCTCTGCTCGTGCTA", "fitted relative affinity [z-score]": 0.918}
{"Oligonucleotide": "TTAGATATCGGATATCGATTAGTGCTA", "fitted relative affinity [z-score]": -0.0414}
{"Oligonucleotide": "GACGGTTTCGGGACTGGAGACGTGCTA", "fitted relative affinity [z-score]": 3.52}
{"Oligonucleotide": "GACGAGCTCAGTCTCGAGACGTGCTAG", "fitted relative affinity [z-score]": -0.222}
{"Oligonucleotide": "TTAGGATTCGGTTCCGGTTAGTGCTAG", "fitted relative affinity [z-score]": 3.52}
{"Oligonucleotide": "TTAGGTATCGGCTATCGGTTAGTGCTA", "fitted relative affinity [z-score]": 0.342}
{"Oligonucleotide": "TCATTTCTCATTCGTCATACTGTGCTA", "fitted relative affinity [z-score]": 3.14}
{"Oligonucleotide": "TTAGGTCTCCTTTTACTTTAGTGCTAG", "fitted relative affinity [z-score]": 1.3}
{"Oligonucleotide": "AACGAACTGGGGTTTCGAGACGTGCTA", "fitted relative affinity [z-score]": 1.13}
{"data": "Block 4", "target": "RNA binding protein fox-1 homolog 2, RRM domain, GST-SBP tag (RBFOX2, Homo sapiens, UniProt O43251-10, residues 100-194)", "method": "RNA Bind-n-Seq", "form": "RNA", "medium": "in vitro", "concentration": "365 nM", "setting": "natural RNA segment, single round, ends assumed", "relative to": "no-protein control", "reading": "higher = stronger binding", "Residues (chain)": "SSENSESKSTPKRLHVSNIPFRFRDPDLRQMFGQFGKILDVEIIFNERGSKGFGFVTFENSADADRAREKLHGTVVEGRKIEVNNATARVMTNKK"}
{"Oligonucleotide": "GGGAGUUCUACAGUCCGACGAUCUGAAUUUGUUUUCUGUGAAUUCUAACCUCUAAAGGCAUGCUUAGAGGUCAAGGACCUUCCUGUGUAGUUGGUGCAAAAGCAAUCUCCACAGGACAGCACUGCUUCCAUGCUGGAAUUCUCGGGUGCCAA", "RBNS enrichment (R)": 25.7}
{"Oligonucleotide": "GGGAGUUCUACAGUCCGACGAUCGCUCAUGAGCUGGUCUAAUGCAGUCACAUUGGUGCUGAGCUGCCCAGGACCCUGGGACAUAGAUAAAGCCCGCCUCCAGUCCCUGGGUGCUGGAACAGAUUGUCUGGGAGUGGAAUUCUCGGGUGCCAA", "RBNS enrichment (R)": 0.497}
{"Oligonucleotide": "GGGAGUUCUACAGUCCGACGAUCGCACUCAGACAUGACAUUUCAAUUCAUCUCUGCUAAUGAAAAGGGUUCUUUCUCUUGGGGGAAAUGUGUGUGUCAGUUCUGUCAGCUGCAAGUUCUUGUAUAAUGAAGUCUGGAAUUCUCGGGUGCCAA", "RBNS enrichment (R)": 1.15}
{"Oligonucleotide": "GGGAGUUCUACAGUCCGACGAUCCUGGUUUGUUGUAUUAUAGUAUAUUUCGCUGUGGAAAAUGUCACGUUUAGUCACCUUGGAGCCCACUCACCUGGUCCUGUUGUUUUACCCCAUCCCUUCUCUCGCGCGCCUGGAAUUCUCGGGUGCCAA", "RBNS enrichment (R)": 0.418}
{"Oligonucleotide": "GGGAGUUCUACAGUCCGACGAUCUUUAUUUGUGAUGACACAAUAGAGCCAGAAUAUUAGCUAACAACGUUGAAGGAGGUGUUGGGUGUUUUUAAAUAUUUAGUUAAUAUAUUCCUCAUGGACAUAAAAUACAUUGGAAUUCUCGGGUGCCAA", "RBNS enrichment (R)": 1.05}
{"Oligonucleotide": "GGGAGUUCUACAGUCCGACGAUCACAAAGCCCACCUGCUCAUUCUCGUAGCUUUAAAGAAAAAGAAAAAGGAAAAAUAAGGAAAACUGCAAAUCUAGAAAACUUUUUAGAGAAACCUAUUUAAAACUGUCAGGUGGAAUUCUCGGGUGCCAA", "RBNS enrichment (R)": 0.625}
{"Oligonucleotide": "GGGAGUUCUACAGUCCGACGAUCUCUCCAGUAUACUACAGUGGGAAUCACUGAUCUAGUUAACGGCAGCACUCUUGGAUUAAUUCAAUUGUUAUUUCUACUCUUUAACAACAGAAUAAGCCAGAUCCUUGACUUGGAAUUCUCGGGUGCCAA", "RBNS enrichment (R)": 0.267}
{"Oligonucleotide": "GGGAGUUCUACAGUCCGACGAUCAUCUAAGACAGUGGAUUUUUCAAAAAGACCUUUUUUCUAUUGUUUGAGAAAAAUCAUUGUUUCUUGUGAAACUGCGUGUCUUCCCUAAAAAUAAUAAAAUUCAGAAAUGUUGGAAUUCUCGGGUGCCAA", "RBNS enrichment (R)": 0.942}
